# Assay results pooled from the literature.
# Lines come from different studies, so protocols differ. ± marks the error that the study gave.
SMILES,target or system,assay,test system,setting,scale,endpoint,value
CC(C)N1CCC(NC2CCN(c3cccc(-c4cc5cc(F)ccc5[nH]4)c3)CC2)CC1,SR,,,,,GI50,0.272 µM
Cn1cc(C(F)(F)F)nc1-c1ccc(OCC(O)CNCCOc2ccc(O)c(C(N)=O)c2)cc1 (stereo not shown),Plasmodium falciparum,,3D7,,,IC50,2.51 µM
COc1ccc2c(c1)[nH]c1c(C)nccc12,DU-145,"bisulfite pyrosequencing, refers to: RASSF1A promoter CpG site 1",,concentration not given,reference: vehicle,methylation reduction,16.6%
C/C=C(/C)C(=O)O[C@H]1C(C)=C2[C@H]([C@@H]1OC(=O)CCCCCCC)[C@@](C)(OC(C)=O)C[C@H](OC(=O)CCC)[C@@]1(O)[C@H]2OC(=O)[C@@]1(C)O,HEK-293T,"RNA-seq GSEA, refers to: Hallmark androgen response",,"500 nM, 6 h",direction not given,normalized enrichment score,1.86
COc1cc(CCC[P+](c2ccccc2)(c2ccccc2)c2ccccc2)c(OC)c2c1OCO2.[I-],NCI-H226,SRB,,,,GI50,-5.5 log M
Oc1cc(Cl)ccc1Oc1ccc(Cl)cc1Cl,HepG2,"nuclear translocation, refers to: NF-κB",,24 h,,representative mode point of departure,17 µM
CN1CCN(C2(CNC3CCN(c4cccc(-c5cc6cc(F)ccc6[nH]5)c4)CC3)CCC2)CC1,SNB-75,,,,,CC50,5.79 µM
COc1c(CCC[P+](c2ccccc2)(c2ccccc2)c2ccccc2)cc2c(c1OC)OCO2.[I-],SNB-75,SRB,,,,TGI,-5.29 log M
C[C@H](CCC(=O)NCCS(=O)(=O)O)[C@H]1CC[C@H]2[C@@H]3[C@H](O)C[C@@H]4C[C@H](O)CC[C@]4(C)[C@H]3C[C@H](O)[C@]12C,Plasmodium falciparum,,3D7,,,IC50,6.31 µM
COc1c(C)c2c(c(O)c1C/C=C(\C)CCC(=O)O)C(=O)OC2,pancreas cancer cell lines,cell proliferation,,average over lines,,IC50,1.51 µM
Nc1ncc(-c2nc(N3CCOCC3)nc(N3CCOCC3)n2)c(C(F)F)n1,MG-63,,,72 h,,GI50,0.109 µM
Nc1ncnc2c1ncn2[C@@H]1O[C@@H]2COP(=O)(O)O[C@H]3[C@@H](O)[C@H](n4cnc5c(=O)[nH]cnc54)O[C@@H]3COP(=O)(O)O[C@H]2[C@H]1O,HFF-1,"RNA sequencing, refers to: Reactome Interferon alpha/beta signaling",,upregulated pathways,reference: mock,fold enrichment,24.6
O=S(=O)(c1ccc(O)cc1)c1ccc(O)cc1,HepG2 spheroids,Hoechst flow cytometry,,"10 µM, 96 h",,S phase cells,12 ± 7.2%

# For quick reference, copied from above:
SMILES,target or system,assay,test system,setting,scale,endpoint,value
Cn1cc(C(F)(F)F)nc1-c1ccc(OCC(O)CNCCOc2ccc(O)c(C(N)=O)c2)cc1 (stereo not shown),Plasmodium falciparum,,3D7,,,IC50,2.51 µM
COc1ccc2c(c1)[nH]c1c(C)nccc12,DU-145,"bisulfite pyrosequencing, refers to: RASSF1A promoter CpG site 1",,concentration not given,reference: vehicle,methylation reduction,16.6%
